Measured values pooled from the literature.
Compare with care: the assays were run in different laboratories. Numbers after ± are the reported error.
Target: Cannabinoid receptor 1 (CNR1, Homo sapiens, UniProt P21554)
UniProt P21554, sequence (whole entry, looked up): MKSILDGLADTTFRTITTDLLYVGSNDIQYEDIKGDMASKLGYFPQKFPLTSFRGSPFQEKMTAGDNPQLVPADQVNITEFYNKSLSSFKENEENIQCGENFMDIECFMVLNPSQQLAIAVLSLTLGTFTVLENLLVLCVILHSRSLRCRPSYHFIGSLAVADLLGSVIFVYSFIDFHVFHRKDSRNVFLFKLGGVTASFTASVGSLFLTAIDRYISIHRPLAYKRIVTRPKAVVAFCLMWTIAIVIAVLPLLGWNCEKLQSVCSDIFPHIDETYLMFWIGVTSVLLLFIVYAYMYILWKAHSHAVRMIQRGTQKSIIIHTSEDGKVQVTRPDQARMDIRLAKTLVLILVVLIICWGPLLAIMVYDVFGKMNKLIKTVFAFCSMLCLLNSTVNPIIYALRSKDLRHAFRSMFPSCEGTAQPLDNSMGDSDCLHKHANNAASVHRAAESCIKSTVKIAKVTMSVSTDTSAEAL

| Structure (SMILES) | assay | system | conditions | endpoint | value |
| --- | --- | --- | --- | --- | --- |
| CCC(=C(c1ccc(OCCN2CCCC2)cc1)c1ccc(OCCN2CCCC2)cc1)c1ccccc1 | ligand displacement, radioligand |  | cell membranes | Ki | 732 nM |
| CCCCCCCCCCCCC/C=C/CCC(=O)N[C@H](CO)COC | cAMP, agonist |  |  | EC50 | 11800 nM |
| COC(=O)c1ccc2c(C(CC(F)(F)F)c3cccs3)c(-c3ccccc3)[nH]c2c1 (single isomer, unassigned; (-)) | positive allosteric modulator |  | added: EC20 CP 55940 | EC50 | 113 ± 62 nM |
| CCCCCn1cc(C(=O)C2C(C)(C)C2(C)C)c2ccccc21 | GIRK channel fluorescence, agonist | AtT20 expressing CB1 |  | EC50 | 532 ± 33.9 nM |
| CCc1c(C(=O)NCCc2ccc(N3CCCCC3)cc2)[nH]c2ccc(Cl)cc12 | cAMP level, negative allosteric modulator | HEK293 CRE reporter | 4 h, added: anandamide 500 nM and forskolin 10 µM | IC50 | 882 nM |
| CCCCC(C)c1ccc(-c2c(-c3ccc(Cl)cc3Cl)nn(N3CCCCC3)c2C)cc1 (stereo not shown) | ligand displacement, radioligand |  | cell membranes | Ki | 1.3 nM |
| CCc1c(C(=O)NCCc2ccc(N3CCCCC3)cc2)[nH]c2ccc(N=C=S)cc12 | cAMP level, negative allosteric modulator | HEK293 CRE reporter | 4 h, added: anandamide 500 nM and forskolin 10 µM | IC50 | 774 nM |
| CC1=CC[C@@H]2[C@@H](C1)c1c(O)cc(CC#CCCCNS(C)(=O)=O)cc1OC2(C)C | cAMP, agonist |  |  | EC50 | 40.4 nM |
| CC1(Cc2ccccc2)COc2ccc(C(=O)N3CCCCC3)cc21 (stereo not shown) | GTPγS binding, agonist |  | cell membranes | EC50 | > 10000 nM |
| C=CCCCn1nc(C(=O)N[C@H](C(=O)OC)C(C)(C)C)c2ccccc21 | GIRK channel fluorescence, agonist | AtT20 expressing CB1 |  | EC50 | 19.7 ± 2.9 nM |
| CCCCCc1ccc(-n2nc(C(=O)NN3CCCCC3)c(C)c2-c2ccc(Cl)cc2)cc1 | ligand displacement, radioligand |  | cell membranes | Ki | 83.4 nM |
| CCC/C=C/CC1(C)COc2cc(C(=O)N3CCCCC3)ccc21 (stereo not shown) | GTPγS binding, agonist |  | cell membranes | EC50 | 856 nM |
| COC(=O)[C@@H](NC(=O)c1nn(CCCCF)c2ccccc12)C(C)(C)C | GIRK channel fluorescence, agonist | AtT20 expressing CB1 |  | EC50 | 4.97 ± 2.6 nM |
| C[C@]1(Cc2ccccc2)COc2cc(C(=O)N3CCCCC3)ccc21 | GTPγS binding, agonist |  | cell membranes | EC50 | > 10000 nM |
| CN1CCCCC1Cn1cc(C(=O)C23CC4CC(CC(C4)C2)C3)c2ccccc21 (stereo not shown) | GIRK channel fluorescence, agonist | AtT20 expressing CB1 |  | EC50 | 2530 ± 805 nM |
| CC1=CCC2C(C1)c1c(O)cc(C(C)(C)C)cc1OC2(C)C (stereo not shown) | ligand displacement, radioligand |  | cell membranes | Ki | 7.3 nM |

Excerpt of the above:
| Structure (SMILES) | assay | system | conditions | endpoint | value |
| --- | --- | --- | --- | --- | --- |
| CC1=CC[C@@H]2[C@@H](C1)c1c(O)cc(CC#CCCCNS(C)(=O)=O)cc1OC2(C)C | cAMP, agonist |  |  | EC50 | 40.4 nM |
| CC1(Cc2ccccc2)COc2ccc(C(=O)N3CCCCC3)cc21 (stereo not shown) | GTPγS binding, agonist |  | cell membranes | EC50 | > 10000 nM |
